Results from different studies.
Lines come from different studies, so protocols differ. ± gives the spread as reported.
Organism: Toxoplasma gondii

Compound | assay | system | setting | quantity | value
CCC(=O)CCCCC[C@@H]1NC(=O)[C@H]2CCCCN2C(=O)[C@H]([C@@H](C)CC)NC(=O)[C@H](Cc2cn(OC)c3ccccc23)NC1=O | intracellular growth, [3H]uracil incorporation | HFF, RH wild type | 72 h | EC50 | 0.015 ± 0.002 µM
[N-]=[N+]=NCCOc1ccc(Oc2ccccc2)cc1 | – | tachyzoites | – | IC50 | > 10 µM
CC(C)(C)c1nn(-c2cc(OCc3cn(Cc4ccc(Br)cc4)nn3)c(Cl)cc2Cl)c(=O)o1 | intracellular growth | HFF, Δppo PPO-complemented | 96 h | IC50 | 1.7 ± 0.2 µM
CC(C)(C)C1=CC(=NNC(=O)c2ccc([N+](=O)[O-])cc2)C=C(C(C)(C)C)C1=O | – | ME49, Swiss-Webster mice | intraperitoneal, 5.0 mg/kg/day, 10 days dosing, 40 days observed | survival | 0%
OCC1CC(n2cnc3c(SCc4ccc(Cl)cc4)ncnc32)C(O)C1O (centres unmarked) | parasite growth, radiolabelled uracil incorporation | RH wild type, tissue culture | – | IC50 | 14.5 ± 1.3 µM
Cc1ccc(S(=O)(=O)OCCOc2cccnc2)cc1 | – | tachyzoites | – | IC50 | > 10 µM
CC(C)(C)c1nn(-c2cc(OCc3cn(Cc4cccc(Br)c4)nn3)c(Cl)cc2Cl)c(=O)o1 | intracellular growth | HFF, Δppo PPO-complemented | 96 h | IC50 | 1.5 ± 0.5 µM
OCC1CC(n2cnc3c(SCc4c(F)cccc4Cl)ncnc32)C(O)C1O (centres unmarked) | parasite growth, radiolabelled uracil incorporation | RH wild type, tissue culture | – | IC50 | 13.6 ± 0.2 µM
N#CSCCOc1ccc(Br)cc1Br | – | tachyzoites | – | IC50 | > 10 µM
CC(=O)c1ccc(Cn2cc(COc3cc(-n4nc(C(C)(C)C)oc4=O)c(Cl)cc3Cl)nn2)cc1 | intracellular growth | HFF, Δppo PPO-complemented | 96 h | IC50 | 1.6 ± 0.5 µM
O=[N+]([O-])c1cccc(CSc2ncnc3c2ncn3C2CC(CO)C(O)C2O)c1 (centres unmarked) | parasite growth, radiolabelled uracil incorporation | RH wild type, tissue culture | – | IC50 | 19.7 ± 0.2 µM
N#CSCCOc1cccc(Oc2ccncc2)c1 | – | tachyzoites | – | IC50 | > 10 µM
COc1ccc(CSc2ncnc3c2ncn3C2CC(CO)C(O)C2O)cc1 (centres unmarked) | parasite growth, radiolabelled uracil incorporation | RH wild type, tissue culture | – | IC50 | 12.1 ± 0.3 µM
CC(C)(C)c1nn(-c2cc(OCc3cn(Cc4ccc(Cl)cc4)nn3)c(Cl)cc2Cl)c(=O)o1 | intracellular growth | HFF, Δppo PPO-complemented | 96 h | IC50 | 1.1 ± 0.4 µM

Repeated from above:
Compound | assay | system | setting | quantity | value
CC(C)(C)C1=CC(=NNC(=O)c2ccc([N+](=O)[O-])cc2)C=C(C(C)(C)C)C1=O | – | ME49, Swiss-Webster mice | intraperitoneal, 5.0 mg/kg/day, 10 days dosing, 40 days observed | survival | 0%
